{"data": "Measured values of several laboratories", "note": "Protocols differ between the studies behind these lines."}
{"SMILES": "COc1ccc(C[C@@H]2NC(=O)[C@H]([C@@H](C)O)NC(=O)[C@@H]3[C@@H]4CCN3C(=O)[C@@H]3Cc5cn(c6ccc(F)cc56)CCCCCCN(Cc5ccc(cc5)CCNC(=O)[C@]5(C)CCCN5C2=O)C(=O)CCC(=O)N[C@@H](C)C(=O)N[C@H](CNC(=O)CCCCC[N+](C)(C)C)C(=O)N[C@@H](Cc2cccc(c2)CNC(=O)CO4)C(=O)N3)cc1", "system": "human, plasma", "conditions": "oral, 100 mg single, geometric mean, added: sodium caprate 1800 mg", "AUC(0-inf)": "979 nM·h"}
{"SMILES": "OCc1ncc2n1-c1ccc(Cl)cc1C(c1ccccc1F)=NC2", "system": "humans, plasma", "conditions": "3 mg of midazolam, added: isavuconazole", "AUC(0-inf)": "0.0189 µg·h/mL"}
{"SMILES": "Cc1ncc2n1-c1ccc(Cl)cc1C(c1ccccc1F)=NC2", "system": "human, plasma", "conditions": "oral, 2 mg, day 1", "AUC(0-inf)": "0.0223 µg·h/mL"}
{"SMILES": "N.N.O=C([O-])C1(C(=O)[O-])CCC1.[Pt+2]", "test": "item: unbound platinum", "system": "human, plasma ultrafiltrate", "conditions": "intravenous, AUC 2, median, dose level -4", "AUC(0-inf)": "25 µg·h/mL"}
{"SMILES": "Cc1ncc2n1-c1ccc(Cl)cc1C(c1ccccc1F)=NC2", "system": "human, plasma", "conditions": "oral, 2 mg, day 1, single dose alone, mean", "AUC(0-inf)": "0.0287 µg·h/mL"}
{"SMILES": "CCC(CC)COC(=O)[C@H](C)N[P@](=O)(OC[C@H]1O[C@@](C#N)(c2ccc3c(N)ncnn23)[C@H](O)[C@@H]1O)Oc1ccccc1", "system": "human, plasma", "conditions": "intravenous, 100 mg single dose", "AUC(0-inf)": "1.29 µg·h/mL"}
{"SMILES": "O=c1ccc2ncc(=O)n3c2n1C[C@H]3CN1CCC(NCc2cc3c(cn2)OCCC3)CC1", "system": "healthy human volunteers, plasma", "conditions": "oral, dose not given, arithmetic mean, added: rifampicin", "AUC(0-inf)": "10 µg·h/mL"}
{"SMILES": "C[C@]1(CO)Cc2ncn(-c3ccc(C#N)c(Cl)c3)c2C(=O)O1", "system": "human, plasma", "conditions": "10 mg, first dose fasted", "AUC(0-inf)": "2540 nM·h"}
{"SMILES": "OCc1ncc2n1-c1ccc(Cl)cc1C(c1ccccc1F)=NC2", "system": "healthy human volunteers, plasma", "conditions": "5 mg single dose, day 1, fed, given alone", "AUC(0-inf)": "0.0293 µg·h/mL"}
{"SMILES": "CC(C)c1nc(N(C)S(C)(=O)=O)nc(-c2ccc(F)cc2)c1/C=C/[C@@H](O)C[C@@H](O)CC(=O)O", "system": "healthy human subjects, plasma", "conditions": "oral, 20 mg, day 1, alone, geometric mean", "AUC(0-inf)": "0.0491 µg·h/mL"}
{"SMILES": "CC(=O)c1c(C)c2cnc(Nc3ccc(C4CCN(CCS(C)(=O)=O)CC4)cn3)nc2n(C2CCCC2)c1=O", "system": "human, dose-escalation trial, plasma", "conditions": "oral, 75 mg twice daily, day 1, single dose", "AUC(0-inf)": "1.41 µg·h/mL"}
{"SMILES": "OCc1ncc2n1-c1ccc(Cl)cc1C(c1ccccc1F)=NC2", "system": "human, plasma", "conditions": "oral, 7.5 mg of midazolam, day 19, geometric mean, no amenamevir", "AUC(0-inf)": "0.0432 µg·h/mL"}
{"SMILES": "Cc1ncc2n1-c1ccc(Cl)cc1C(c1ccccc1F)=NC2", "system": "human, plasma", "conditions": "intravenous bolus, 3 µg, mean of subjects", "AUC(0-inf)": "0.00011 µg·h/mL"}
